Results of several laboratories.
Lines come from different studies, so protocols differ. Values joined by “and” are separate records of one study, mostly repeats; a detail may differ. ± marks the error that the study gave.

C[C@H](NC(=O)c1c(C(F)F)nn(C)c1Oc1cccc(C(F)(F)F)c1)c1ccc(C(=O)O)cc1  patients not evaluable or unknown (irRECIST best overall response; patients with advanced tumours; 250 mg): 37.5%
C[C@H](Oc1ccc(Br)cc1-c1ccon1)C(=O)O  difference from placebo (first response latency; human, tibialis anterior muscle; 400 mg, 30 Hz, single ascending dose): 0%
CC1(C)CCC2(CC1)N[C@@H](C(=O)N[C@@H]1CC[C@@H](C(N)=O)OC1)[C@H](c1ccnc(Cl)c1F)[C@]21C(=O)Nc2cc(Cl)ccc21  progressive disease (human, solid tumours; 120 mg/day, RECIST; baseline: patients): 33.3%
C[C@@H]1COCCN1c1cc([C@]2(O)C[C@H]3CC[C@@H](C2)O3)c2cnn(-c3cc[nH]n3)c2n1  tumour growth inhibition (ATM-deficient gastric cancer PDX mice; 5 mg/kg once daily for 7 days, day 42): 107 ± 1.4%
CSCCNc1nc(SCCC(F)(F)F)nc2c1ncn2[C@@H]1O[C@H](COP(=O)(O)OP(=O)(O)C(Cl)(Cl)P(=O)(O)O)[C@@H](O)[C@H]1O  patients with high residual reactivity (platelet aggregation, light transmission aggregometry; human patients, platelet-rich plasma; dose not given, 30 min, aggregation above 46%, together with: ADP 5 µM): 55%
CN(C(=O)n1cnc(-c2ccc[n+]([O-])c2)c1)C1CCCCC1  dose for maximal effect (item: AEA and OEA levels; cynomolgus monkey (Macaca fascicularis), plasma; oral, tested doses 0.1, 0.3, 1.0 mg/kg): 0.3 mg/kg
CO[C@H]1CC[C@H](N2C(=O)CNc3ncc(-c4ccc(C(C)(C)O)nc4)nc32)CC1  p4EBP1 change from baseline (flow cytometry; stimulated T cells, human, blood; 60 mg single dose, 3 h, mean; baseline: baseline): -37.2%
CN(C)C(=O)c1cc2cnc(Nc3ccc(N4CCNCC4)cn3)nc2n1C1CCCC1  GSEA enrichment score (RNA sequencing, item: HALLMARK_TGF_BETA_SIGNALING; MB002 tumour; concentration not given; baseline: vehicle, direction not given): -0.252
N#Cc1ccc2c(c1)[C@H]1CCCN(C(=O)c3ccc4[nH]cnc4c3)[C@H]1C2  change from baseline (item: ACTH; human, Phase II trial; oral, 240 mg once daily, HPA axis, mean): 3.8 pmol/L
CC(C)[C@H](NC(=O)[C@H](Cc1ccc(O)cc1)NC(=O)[C@H](Cc1ccc(O)cc1)NC(=O)[C@@H]1CCCN1C(=O)[C@H](CCC(=O)O)NC(=O)[C@H](CCC(=O)O)NC(=O)[C@H](Cc1c[nH]c2ccccc12)NC(=O)[C@@H]1CCCN1C(=O)[C@@H](NC(=O)[C@H](CCC(N)=O)NC(=O)c1ccc2c(c1)C(=O)OC21c2ccc(O)cc2Oc2cc(O)ccc21)C(C)C)C(=O)N[C@H](C(=O)N[C@@H](CCCCN)C(=O)N[C@@H](CCCCN)C(=O)N[C@@H](CO)C(=O)N[C@@H](CO)C(=O)NCC(=O)NCC(N)=O)C(C)C  share of responses (added benefit of NERVE; human head and neck surgery, nerves; 500 mg, much added benefit; baseline: white light): 28.6%
Cc1cc(-c2nnc(N)nc2-c2ccc(F)cc2)cc(Cl)n1  GSVA score change (NanoString, item: NKT.Medi.IO signature; human mCRPC, peripheral blood; dose not given, 2 or 4 weeks; baseline: baseline, direction not given): -0.185
CCc1c(C)nc(-c2ccc(Cl)s2)nc1Nc1ccc(CC(=O)O)cc1  liver to body weight ratio (C57BL/6J mouse, MCD diet MASH model; intraperitoneal, 0.3 mg/kg daily, MCD diet 6 weeks, dosed final two weeks; baseline: untreated): decreased
COc1ccc(-c2cncc(N[C@@H](C)c3cccc(NC(=O)c4cncc(C)c4)c3)n2)cc1OC  delta delta Ct (item: rno-miR-22-3p; rat SU5416/hypoxia model, lung; dose not given, unit not given; baseline: SU5416/hypoxia vehicle): -0.639
C[C@H]1C[C@H]2CSC(N)=N[C@@]2(c2nc(NC(=O)c3ccc(OC(F)F)cn3)cs2)CO1  percent change from baseline (item: Aβ1-40; healthy adults, plasma; 400 mg single dose, 24 h post-dose; baseline: placebo): -84.9%
N#Cc1ccc2c(-c3ccncc3)c(-c3ccc(F)cc3)nn2c1  log2 fold change (kinase binding, competitor, MIB/MS competition, item: AKL1; Candida albicans cell lysate; 1 µM; baseline: DMSO): 0.0514
CC1(C)CCC(c2ccc(Cl)cc2)=C(CN2CCN(c3ccc(C(=O)NS(=O)(=O)c4ccc(N[C@H](CCN5CCOCC5)CSc5ccccc5)c(S(=O)(=O)C(F)(F)F)c4)cc3)CC2)C1  EC50 (cell kill; primary neoplastic T lymphocytes, dog 8; 24 h, multicentric intermediate-large T-cell lymphoma): 10 nM
NC(=O)c1cnc2[nH]ccc2c1N[C@@H]1[C@@H]2CC3C[C@H]1C[C@@](O)(C3)C2  CD4+ naive T-cell change (flow cytometry; Japanese healthy men, blood; oral, 10 mg twice daily, 72 h after day 7 dose; baseline: baseline): -4.38%
CC1=NN(c2ccc(C(=O)O)cc2)C(=O)/C1=C\c1ccc(-c2cc(C)c(C)cc2[N+](=O)[O-])o1  viability (HBL-1; 0.5 µM, 120 h): 122%
COc1ncc(-c2nc3c(n2C(C)C)[C@H](c2ccc(Cl)cc2)N(c2cc(Cl)cn(C)c2=O)C3=O)c(OC)n1  best overall response (antileukemic activity, item: treatment failure, indeterminate cause; human, acute myeloid leukaemia; 120 mg, high-dose, RDE, IWG criteria): 0%
CC[C@H](C)n1cc(C)c2c(C(=O)NCc3c(C)cc(C)[nH]c3=O)cc(-c3ccc(N4CCNCC4)nc3)cc21  viability (HBL-1; 0.5 µM, 120 h): 142%
C=CC[C@@H]1/C=C(\C)C[C@H](C)C[C@H](OC)[C@H]2O[C@@](O)(C(=O)C(=O)N3CCCC[C@H]3C(=O)O[C@H](/C(C)=C/[C@@H]3CC[C@@H](O)[C@H](OC)C3)[C@H](C)[C@@H](O)CC1=O)[C@H](C)C[C@@H]2OC  day of graft harvest (rhesus monkey kidney transplant): 100 days
c1ccc(-c2n[nH]cc2-c2ccnc3ccccc23)nc1  log2 fold change (kinase binding, competitor, MIB/MS competition, item: SAK1; Candida albicans cell lysate; 100 nM; baseline: DMSO): 1.25
CCCN1CCCC[C@H]1C(=O)Nc1c(C)cccc1C  motor block (Sprague-Dawley rat, male; intrathecal, 30 µL, 15 mM): 100 % MPE
C[C@H]1O[C@@H](O[C@H]2CC[C@@]3(C)[C@@H](CC[C@]4(C)[C@@H]3C=C[C@]35OC[C@@]6(CCC(C)(C)C[C@H]63)[C@@H](O)C[C@]54C)[C@]2(C)CO)[C@H](O)[C@@H](O[C@@H]2O[C@H](CO)[C@@H](O)[C@H](O)[C@H]2O)[C@H]1O  body weight change (chronic-plus-binge ethanol mice; oral, 5 mg/kg/day for 7 d, 168 h): 0.1 g and -0.3 g and -2.2 g and 1.7 g and -1.5 g
CC(C)[C@H](C(=O)Nc1ccc(C(=O)NO)cc1)c1ccccc1  speech discrimination (human, right ear; 9 months after treatment): 100%
COc1cc(Nc2ncc3c(n2)-c2ccc(Cl)cc2C(c2c(F)cccc2OC)=NC3)ccc1C(=O)O  relative tumour volume T/C (mouse, NB-1643 neuroblastoma xenograft; oral, 20.8 mg/kg, day 14; baseline: vehicle): 0.41
FC(F)(F)CN1CC(n2cc(Oc3ccn4nc(Cl)cc4n3)cn2)C1  reduction (item: C26:0 fatty acid; Abcd1-/y mouse, spinal cord; feed, 100 mg/kg/day, 7 months): 66%
OCC(O)CO  FGF21 level (ELISA; Mus musculus male wild type, serum; drinking water, 5% w/v, 2 days): 504 pg/mL and 702 pg/mL and 753 pg/mL and 849 pg/mL and 320 pg/mL
CCN1CCN(Cc2ccc(Nc3ncc(F)c(-c4cc(F)c5nc6n(c5c4)[C@H](C)CCC6)n3)nc2)CC1  partial response (human advanced solid tumours; 50 mg, phase Ia monotherapy RECIST 1.1): 0%
C[C@]12CC[C@@H]3c4ccc(O)cc4C[C@@H](CCCCCCCCC[S+]([O-])CCCC(F)(F)C(F)(F)F)[C@H]3[C@@H]1CC[C@@H]2O (stereo partly shown)  tumour volume (female nude mouse LCC2 xenograft; 2.0 mg/kg, day 15, tamoxifen-resistant): 124 mm3 and 148 mm3 and 81.2 mm3 and 144 mm3 and 112 mm3 and 98.2 mm3 and 141 mm3
N#Cc1ccc2c(c1)[C@H]1CCCN(C(=O)c3ccc4[nH]cnc4c3)[C@H]1C2  change in HOMA-IR (human, plasma; 10 mg, day 15, 360 h; baseline: placebo and baseline): -0.8%
O=C(O)CNC(=O)Cc1ccccc1  sarcomere length (ventricular cardiomyocytes, C57BL/6 mouse; dose not given, 0.236 s): 1.64 µm
O=C(O)/C=C/c1nccc2c3ccccc3n(Cc3ccc(Br)c4ccccc34)c12  decrease in serum uric acid (mouse, acute hyperuricaemia model; oral, 2 mg/kg): 82.9%
CC(C)NCC(O)c1ccc(O)c(O)c1 (stereo not shown)  sarcomere length (ventricular cardiomyocytes, C57BL/6 mouse; dose not given, 0.792 s): 1.67 µm
Cc1noc(C)c1-c1cc(C(O)(c2ccccn2)c2ccccn2)c2nc(C3CC3)[nH]c2c1  maximum induction (item: HEXIM1 expression; human, peripheral blood; 1.4 mg, day 8, 1599 study): 32.3%
OC(CCN1CCCCC1)(c1ccccc1)C1CC2C=CC1C2 (stereo not shown)  EEG Alpha1-power Pz-O2 (resting-state EEG; healthy elderly humans; oral, 2 mg, eyes closed, LS mean): 15.1 µV²
CSc1ccc(C(=O)/C=C/c2cc(C)c(OC(C)(C)C(=O)O)c(C)c2)cc1  serum HDL level (db/db mice on MCD diet; oral, 30 mg/kg daily, 45 days): increased

Repeated from above:
CC1=NN(c2ccc(C(=O)O)cc2)C(=O)/C1=C\c1ccc(-c2cc(C)c(C)cc2[N+](=O)[O-])o1  viability (HBL-1; 0.5 µM, 120 h): 122%
OC(CCN1CCCCC1)(c1ccccc1)C1CC2C=CC1C2 (stereo not shown)  EEG Alpha1-power Pz-O2 (resting-state EEG; healthy elderly humans; oral, 2 mg, eyes closed, LS mean): 15.1 µV²
O=C(O)CNC(=O)Cc1ccccc1  sarcomere length (ventricular cardiomyocytes, C57BL/6 mouse; dose not given, 0.236 s): 1.64 µm
CC[C@H](C)n1cc(C)c2c(C(=O)NCc3c(C)cc(C)[nH]c3=O)cc(-c3ccc(N4CCNCC4)nc3)cc21  viability (HBL-1; 0.5 µM, 120 h): 142%
CC(C)NCC(O)c1ccc(O)c(O)c1 (stereo not shown)  sarcomere length (ventricular cardiomyocytes, C57BL/6 mouse; dose not given, 0.792 s): 1.67 µm
